Published values collected from several papers.
Lines come from different studies, so protocols differ.

Compound	matrix	time	pH	temperature	kinetic solubility
OCCn1nc(-c2ccccc2)c2c(Cl)c(-c3ccccc3)nnc21	PBS	2 h	pH 7.4		67 µM
Nc1nc(SCc2ccc(Cl)cc2)nn1S(=O)(=O)c1ccc2c(c1)CCO2	PBS	24 h	pH 7.4		6.5 µM
O=C(CNC(=O)c1cccc(NC2=NCC(F)(F)CN2)c1)NC[C@H](NC(=O)c1c(Cl)cc(-c2ccccc2)cc1Cl)C(=O)O	aqueous buffer		pH 7.4		47 µM
CC[C@H](C)[C@@H]1NC(=O)[C@H](Cc2ccc(O)cc2)NC(=O)CCSCc2cccc(c2)CSCCNC(=O)[C@H](Cc2c[nH]cn2)NC(=O)[C@H](Cc2ccc(O)cc2)NC(=O)[C@H](CC(=O)O)NC(=O)[C@H](Cc2ccc(F)cc2)NC(=O)[C@H](CC(C)C)NC(=O)[C@H](CCCNC(=N)N)NC1=O	PBS		pH 7.4		13.9 µM
C/C(N)=N/C(=N\S(=O)(=O)c1ccc(C(F)(F)F)cc1)N1C[C@H](c2ccccc2)C(c2ccc(Cl)cc2)=N1	aqueous buffer				< 1 µg/mL
O=C(N1CCCCC1)C12CC(c3ccccc3)(C1)C2(Cl)Cl	PBS	2 h	pH 7.4	25 °C	116 µM
CC[C@H](C)[C@@H]1NC(=O)[C@H](Cc2ccccc2)NC(=O)CCSCc2cccc(c2)CSCCNC(=O)[C@H](Cc2c[nH]cn2)NC(=O)[C@H](Cc2ccc(O)cc2)NC(=O)[C@H](CC(=O)O)NC(=O)[C@H](Cc2ccc(F)cc2)NC(=O)[C@H](CC(C)C)NC(=O)[C@H](CCCCN)NC1=O	PBS		pH 7.4		29.3 µM
CNC(=O)C1CCCN(C(=O)C2CC3CCC2N3C(=O)[C@@H]2C[C@@H](O)CN2C(=O)NCc2cccc(Cl)c2F)C1 (mixture of isomers)	PBS		pH 7.4		189 µM
CC[C@H](C)[C@@H]1NC(=O)[C@H](Cc2ccccc2)NC(=O)CCSCc2cccc(c2)CSCCNC(=O)[C@H](C)NC(=O)[C@H](Cc2ccc(O)cc2)NC(=O)[C@H](CC(=O)O)NC(=O)[C@H](Cc2ccc(F)cc2)NC(=O)[C@H](CC(C)C)NC(=O)[C@H](CCCCN)NC1=O	PBS		pH 7.4		19.5 µM
CS(=O)(=O)c1ccc(-c2cc(Cl)c(C(=O)N[C@@H](CNC(=O)CNC(=O)c3cccc(NC(=N)N)c3)C(=O)O)c(Cl)c2)cc1	aqueous buffer		pH 7.4		> 100 µM
CC[C@H](C)[C@@H]1NC(=O)[C@H](Cc2ccc(O)cc2)NC(=O)CSC[C@@H](C(N)=O)NC(=O)[C@H](CC(N)=O)NC(=O)[C@H](Cc2cnc[nH]2)NC(=O)[C@H](Cc2ccc(O)cc2)NC(=O)[C@H](CC(=O)O)NC(=O)[C@H](Cc2ccc(O)cc2)NC(=O)[C@H](CC(C)C)NC(=O)[C@H](CCCNC(=N)N)NC1=O	PBS		pH 7.4		118 µM
O=C(N1CCCCC1)C12CC(c3ccccc3)(C1)C2(Br)Br	PBS	2 h	pH 7.4	25 °C	151 µM

Some of these lines once more:
Compound	matrix	time	pH	temperature	kinetic solubility
C/C(N)=N/C(=N\S(=O)(=O)c1ccc(C(F)(F)F)cc1)N1C[C@H](c2ccccc2)C(c2ccc(Cl)cc2)=N1	aqueous buffer				< 1 µg/mL
